# Results of several laboratories.
# Several values in a cell are separate wells, animals, samples, runs or records. ± gives the spread as reported.
# EGFR: Epidermal growth factor receptor (EGFR, Homo sapiens, UniProt P00533)
# EGFR L858R/T790M: Epidermal growth factor receptor (EGFR, Homo sapiens, UniProt P00533, L858R/T790M)
# EGFR T790M: Epidermal growth factor receptor (EGFR, Homo sapiens, UniProt P00533, T790M)
# EGFR C797S/L858R/T790M: Epidermal growth factor receptor (EGFR, Homo sapiens, UniProt P00533, C797S/L858R/T790M)
# EGFR C797S/del746-750/T790M: Epidermal growth factor receptor (EGFR, Homo sapiens, UniProt P00533, C797S/del746-750/T790M)
Structure (SMILES),target,test,setting,IC50
O=C(Nc1nnc2c1c(-c1ccc(Cl)cc1)nc1sc(=Cc3ccco3)c(=O)n12)c1ccccc1 (mixture of isomers),EGFR,"enzyme activity, inhibitor",,54 nM
CCCCCCCCCCCCCCOc1c(O)cc(C(=O)O[C@@H]2Cc3c(O)cc(O)cc3O[C@@H]2c2cc(O)c(O)c(O)c2)cc1O,EGFR,"kinase activity, inhibitor, Z′-LYTE",with: 10 µM ATP,49.9 ± 0.05 nM
Cc1ccc(C2=NN(C3=NC(=O)C(=Cc4ccc(O)cc4)S3)C(c3ccc(F)cc3)C2)cc1 (stereo not shown),EGFR,"enzyme activity, inhibitor",,83 nM
CN(C(=O)c1ccn2ncc(-c3ccc(C(N)=O)cc3)c2c1)c1ccc(C#N)cn1,EGFR,"enzyme activity, inhibitor",,> 10000 nM
Cc1ccc2oc(-c3c4c(N)n[nH]c(=O)c4nn3-c3ccc(NC(=O)/C=C/CN(C)C)cc3)c(C)c2c1,EGFR,"enzyme activity, inhibitor, ELISA",,> 1000 nM
O=C(O[C@@H]1Cc2c(O)cc(O)cc2O[C@@H]1c1cc(O)c(O)c(O)c1)c1cc(O)c(O)c(O)c1,EGFR L858R/T790M,"kinase activity, inhibitor, Z′-LYTE",with: 10 µM ATP,118 ± 0.07 nM
CCOC(=O)/C(=N\Nc1ccc(S(=O)(=O)Nc2ncccn2)cc1)C(=O)c1ccccc1,EGFR,"enzyme activity, inhibitor, TR-FRET",,38.9 nM
C=CC(=O)N1CCC[C@@H](n2nc(-c3cnc4[nH]ccc4c3)c3c(N)ncnc32)C1,EGFR,cell-free assay,,13 nM
NS(=O)(=O)c1ccc(-n2c(SCC(=O)Nc3ccccc3F)nc3cc4ccccc4cc3c2=O)cc1,EGFR,"kinase activity, inhibitor",,26 ± 4 nM
CCCCCCCCCCCCOc1c(O)cc(C(=O)OC2Cc3c(O)cc(O)cc3OC2c2cc(O)c(O)c(O)c2)cc1O (stereo not shown),EGFR,"kinase activity, inhibitor, Z′-LYTE",with: 10 µM ATP,21.46 ± 0.05 nM
CC[C@H](C(=O)N1CCCC[C@H]1C(=O)O[C@H](CCc1ccc(OC)c(OC)c1)c1cccc(OCC(=O)NCCC(=O)N2CCN(CCCOc3cc4c(Nc5ccc(F)c(Cl)c5)ncnc4cc3OC)CC2)c1)c1cc(OC)c(OC)c(OC)c1,EGFR,"enzyme activity, inhibitor, TR-FRET",,0.38 nM
C=CC(=O)N1CCC[C@@H](n2nc(-c3ccccc3)c3c(N)ncnc32)C1,EGFR L858R/T790M,cell-free assay,,243 nM
C/C(=N\NC(N)=S)c1c(O)c2ccccc2oc1=O,EGFR,"enzyme activity, inhibitor, ATP luminescence",,311 nM
CN1CCC2(CC1)C/C(=N\NC(=O)Nc1ccccc1)c1ccccc1O2,EGFR,"enzyme activity, inhibitor",,116 nM
Cc1nc(-c2ccc(NC(=O)c3cccs3)cc2Cl)no1,EGFR T790M,"enzyme activity, inhibitor, ATP luminescence",,< 50000 nM
COc1ccc(C2=NN(C3=NC(=O)C(=Cc4ccc(O)cc4)S3)C(c3ccc(F)cc3)C2)cc1 (stereo not shown),EGFR,"enzyme activity, inhibitor",,262 nM
Cc1ccc(S(=O)(=O)c2c(-c3ccccc3)c3c(C)c4ccccc4n3c3ccccc23)cc1,EGFR,"enzyme activity, inhibitor, ADP detection",,280 nM
COc1ccc(NC(=O)N/N=C2\CC3(CCN(C)CC3)Oc3ccccc32)cc1,EGFR,"enzyme activity, inhibitor",,77 nM
O=C(Nc1ccc(-c2noc(C3CC3)n2)c(Cl)c1)c1cccs1,EGFR T790M,"enzyme activity, inhibitor, ATP luminescence",,< 50000 nM
Oc1ncnc2c1sc1sc3c(O)ncnc3c12,EGFR,"enzyme activity, inhibitor, TR-FRET",,290 nM
CC(=NN=c1sc(C(=O)c2ccccc2)nn1-c1ccccc1)c1ccc(S(=O)(=O)N2CCC(C)CC2)cc1,EGFR,"enzyme activity, inhibitor",,1310 nM
N#Cc1ccc(O)c(-c2nc(NCCN3CCNCC3)c3ccccc3n2)c1,EGFR C797S/L858R/T790M,"enzyme activity, inhibitor, ATP luminescence",,736 nM
COCC1CN(C2CCN(c3cc(OC)c(Nc4ncc(Br)c(Nc5ccc6c(c5P(C)(C)=O)OCCO6)n4)cc3C)CC2)C1,EGFR C797S/del746-750/T790M,"kinase activity, TR-FRET",with: ATP at Km,< 1.5 nM
Nc1ncnc2c1sc1sc3c(N)ncnc3c12,EGFR,"enzyme activity, inhibitor, TR-FRET",,280 nM
CCCCCCCCCCOc1c(O)cc(C(=O)OC2Cc3c(O)cc(O)cc3OC2c2cc(O)c(O)c(O)c2)cc1O (stereo not shown),EGFR L858R/T790M,"kinase activity, inhibitor, Z′-LYTE",with: 10 µM ATP,103.8 ± 0.08 nM
N#Cc1c(N2CCN(c3ncccn3)CC2)cc(-c2cc3ccccc3o2)c2c1CCCC2,EGFR C797S/L858R/T790M,"enzyme activity, inhibitor",,3260 nM
COc1cc(N2CCN(C)CC2)ccc1Nc1ncc(Cl)c(Nc2ccccc2NS(=O)(=O)C2CC2)n1,EGFR C797S/L858R/T790M,"enzyme activity, inhibitor, ELISA",,7.39 nM
Oc1ccc(Cl)cc1-c1nc(NCCN2CCNCC2)c2ccccc2n1,EGFR C797S/del746-750/T790M,"kinase activity, inhibitor, Kinase-Glo Plus","40 min, 30 °C, with: ATP 10 µM",89 ± 4 nM
N=c1c2sc3sc4c(=N)n(-c5ccccc5)c(=S)[nH]c4c3c2[nH]c(=S)n1-c1ccccc1,EGFR,"enzyme activity, inhibitor, TR-FRET",,2770 nM
COc1cc(N(C)CCN(C)C)c(NC(=O)/C=C/c2ccc3c(c2)OCO3)cc1Nc1nccc(-c2cn(C)c3ccccc23)n1,EGFR L858R/T790M,"enzyme activity, inhibitor",,1390 nM
C=CC(=O)N1CCC[C@@H](n2nc(-c3cccc(C(F)(F)F)c3)c3c(N)ncnc32)C1,"EGFR (Homo sapiens, UniProt P00533, L858R)","enzyme activity, inhibitor",with preincubation,27 nM
O=C(NCCN1CCN(C(=O)c2cc(-c3ccc(Cl)cc3)nc3ccccc23)CC1)c1cc(-c2ccc(Cl)cc2)nc2ccccc12,EGFR C797S/L858R/T790M,"enzyme activity, inhibitor",,> 10000 nM
C#Cc1cccc(Nc2ncnc3cc(OC)c(OCCCN4CCOCC4)cc23)c1,"EGFR (Homo sapiens, UniProt P00533, del746-750)",inhibitor,"30 min, room temperature, with: 80.8 µM ATP",1.23 nM and 1.2 nM
Cc1ccc(S(=O)(=O)c2c(-c3ccccc3)c3c(C)c4ccc(C)cc4n3c3ccccc23)cc1,EGFR,"enzyme activity, inhibitor, ADP detection",,480 nM
